Measurements pooled from the literature.
± gives the spread as reported.

For `O=c1cc(-c2ccccc2)oc2cc(O)cc([O][Ga+][O]c3cc(O)cc4oc(-c5ccccc5)cc(=O)c34)c12`, the inhibition was 81% (Pseudomonas aeruginosa; elastase secretion, elastin-Congo red; 0.08 µM, 20 h).
Under “log β2 Cu(I)”, `C[C@H](NC(=O)[C@H](CCCNC(=N)N)NC(=O)[C@H](CCCCN)NC(=O)[C@H](C)NC(=O)[C@H](Cc1c[nH]cn1)NC(=O)[C@H](CO)NC(=O)[C@@H](N)CC(=O)O)C(=O)N[C@@H](Cc1c[nH]cn1)C(=O)NCC(=O)N[C@@H](Cc1ccc(O)cc1)C(=O)N[C@@H](CCCCN)C(=O)N[C@@H](CCCNC(=N)N)C(N)=O` is recorded as 10.1 (pH 7.4, 2:1 peptide:Cu(I) complex, added: ferrozine competitor).
For `O=c1[nH]c(N2CCC3(CC2)CN(CCO)c2cc(F)cc(F)c23)nc2c1CCCC2`, reporter activity read “decreased” (HEK-293T; TCF/LEF reporter gene, luciferase; concentration not given, 30 h, added: L-Wnt3A conditioned medium).
Under “maximum caspase-positive parasites”, `CC[C@H](C)[C@H](NC(=O)[C@@H](NC(=O)[C@H](Cc1ccc(O)cc1)NC(=O)[C@H](CCCCN)NC(=O)[C@H](CCCCN)NC(=O)[C@H](CC(C)C)NC(=O)[C@H](CC(=O)O)NC(=O)[C@H](Cc1ccc(O)cc1)NC(=O)[C@H](CCC(N)=O)NC(=O)[C@H](CCCCN)NC(=O)[C@@H](NC(=O)[C@H](Cc1ccccc1)NC(=O)[C@H](CCCCN)NC(=O)[C@H](CCCCN)NC(=O)[C@H](Cc1c[nH]c2ccccc12)NC(=O)[C@H](CCCCN)NC(=O)[C@H](CCSC)NC(=O)[C@H](CCCNC(=N)N)NC(=O)[C@H](CCCNC(=N)N)NC(=O)[C@H](CC(N)=O)NC(=O)[C@H](CCC(N)=O)NC(=O)[C@H](Cc1ccccc1)NC(=O)[C@H](Cc1c[nH]c2ccccc12)NC(=O)[C@@H](NC(=O)[C@H](CCCCN)NC(=O)[C@@H](NC(=O)[C@H](CCC(N)=O)NC(=O)[C@@H](N)CCCNC(=N)N)[C@@H](C)CC)[C@@H](C)CC)[C@@H](C)CC)[C@@H](C)CC)C(=O)O` is recorded as about 70% (Plasmodium falciparum; caspase-like protease activation; 90 µM, 4 to 12 h).
`C[C@H](NC(=O)[C@H](Cc1c[nH]cn1)NC(=O)[C@H](CO)NC(=O)[C@@H](N)CC(=O)O)C(=O)N[C@@H](CCCCN)C(=O)N[C@@H](CCCNC(=N)N)C(=O)N[C@@H](Cc1c[nH]cn1)C(=O)N[C@@H](Cc1c[nH]cn1)C(=O)NCC(=O)N[C@@H](Cc1ccc(O)cc1)C(=O)N[C@@H](CCCCN)C(=O)N[C@@H](CCCNC(=N)N)C(=O)N[C@@H](CCCCN)C(=O)N[C@@H](Cc1ccccc1)C(=O)N[C@@H](Cc1c[nH]cn1)C(=O)N[C@@H](CCC(=O)O)C(=O)N[C@@H](CCCCN)C(=O)N[C@@H](Cc1c[nH]cn1)C(=O)N[C@@H](Cc1c[nH]cn1)C(=O)N[C@@H](CO)C(=O)N[C@@H](Cc1c[nH]cn1)C(=O)N[C@@H](CCCNC(=N)N)C(=O)NCC(=O)N[C@@H](Cc1ccc(O)cc1)C(=O)O` — result for “log β2 Cu(I)”: 15.4 ± 0.2 (pH 7.4, 1:2 peptide:Cu(I) complex, added: ferrozine competitor).
`C[N+]1(CC(=O)OC2CCCCCCCCCCC2)CCCCC1` — result for “AR transcriptional activity”: “inhibited” (LNCaP expressing AR-V7; inhibitor, luciferase reporter; concentration not given, 8 h).
With `O=c1cc(-c2ccc(O)cc2)oc2cc(O)cc([O][Ga+][O]c3cc(O)cc4oc(-c5ccc(O)cc5)cc(=O)c34)c12` the inhibition was 53% (Pseudomonas aeruginosa; elastase secretion, elastin-Congo red; 0.08 µM, 20 h).
The tissue uptake of `N=C(N)NCCC[C@@H]1NC(=O)[C@H](CCCCNC(=O)CNC(=O)CNC(=O)CNC(=O)CC[C@H](NC(=O)CNC(=O)CNC(=O)CNC(=O)CN2CCN(CC(=O)O)CCN(CC(=O)O)CCN(CC(=O)O)CC2)C(=O)NCC(=O)NCC(=O)NCC(=O)NCCCC[C@@H]2NC(=O)[C@@H](Cc3ccccc3)NC(=O)[C@H](CC(=O)O)NC(=O)CNC(=O)[C@H](CCCNC(=N)N)NC2=O)NC(=O)[C@@H](Cc2ccccc2)NC(=O)[C@H](CC(=O)O)NC(=O)CNC1=O` [indium-111 labelled] is reported as 0.04 %ID/g (female athymic nu/nu mice, brain; intravenous, 72 h).
`[64Cu+2].c1cnc(CNCc2ccc(CN3CCCN4CCNCCCN(CC4)CC3)cc2)nc1` has a tissue uptake of 1.02 ± 0.11 %ID/g (CXCR4; NOD/SCID mouse, U87 and U87-stb-CXCR4 xenografts, blood; iv, 450 min, ex vivo).
`CCCC[C@H](NC(=O)CNC(=O)CNC(=O)CN1CCN(CC(=O)O)CCN(CC(=O)O)CCN(CC(=O)O)CC1)C(=O)N[C@H]1CC(=O)NCCCC[C@@H](C(N)=O)NC(=O)[C@H](Cc2c[nH]c3ccccc23)NC(=O)[C@H](CCCNC(=N)N)NC(=O)[C@@H](Cc2ccccc2)NC(=O)[C@H](Cc2c[nH]cn2)NC1=O` [lutetium-177 labelled] has a tissue uptake of 1.12 ± 0.22 %ID/g (C57 mouse, female, heart; intravenous, 0.037 MBq, 0.5 h).
`O=[N+]([O-])c1ccc(/N=N/c2ccc(N(CCS(=O)(=O)O)CCS(=O)(=O)O)cc2)cc1` — result for “UV-vis absorption change”: “no effect” (Cu2+ binding; methanol; concentration not given, added: Cu2+ 0.5 mM, 1 equiv).
For `CC(C)=CCCC(C)=CCc1cc(-c2coc3cc(OC4OC(C(=O)O)C(O)C(O)C4O)ccc3c2=O)ccc1O` (stereo not shown), “substrate inhibition Ki” read 15.4 ± 2.35 µM (glucuronidation, substrate; mouse liver microsomes).
`CS(=O)(=O)c1ccc(-c2nnc(/C=C/c3nnc(-c4ccc(C#N)cc4)o3)n2-c2ccccc2Cl)nc1` — result for reporter activity: “decreased” (HEK-293T; TCF/LEF reporter gene, luciferase; concentration not given, 30 h, added: L-Wnt3A conditioned medium).

Repeated from above:
Under “log β2 Cu(I)”, `C[C@H](NC(=O)[C@H](CCCNC(=N)N)NC(=O)[C@H](CCCCN)NC(=O)[C@H](C)NC(=O)[C@H](Cc1c[nH]cn1)NC(=O)[C@H](CO)NC(=O)[C@@H](N)CC(=O)O)C(=O)N[C@@H](Cc1c[nH]cn1)C(=O)NCC(=O)N[C@@H](Cc1ccc(O)cc1)C(=O)N[C@@H](CCCCN)C(=O)N[C@@H](CCCNC(=N)N)C(N)=O` is recorded as 10.1 (pH 7.4, 2:1 peptide:Cu(I) complex, added: ferrozine competitor).
For `O=c1[nH]c(N2CCC3(CC2)CN(CCO)c2cc(F)cc(F)c23)nc2c1CCCC2`, reporter activity read “decreased” (HEK-293T; TCF/LEF reporter gene, luciferase; concentration not given, 30 h, added: L-Wnt3A conditioned medium).
